Results from different studies.
EGFR: Epidermal growth factor receptor (EGFR, Homo sapiens, UniProt P00533)

For `CN1CCN(Cc2ccc(-c3ccc(CO[C@H]4CCC[C@@H]4NC(=O)c4cc(-c5cnn(C)c5)cnc4N)cc3)cc2)CC1`, the inhibition was -2% (EGFR (Homo sapiens, UniProt P00533, L858R/T790M); enzyme activity, inhibitor; 0.1 µM).
`C=CC(=O)Nc1cc(-c2nn(C3CCN(CCNC(=O)[C@H](C)CCC45CC6CC(CC(C6)C4)C5)CC3)c3ncnc(N)c23)ccc1Oc1ccccc1` gave an inhibition of 48.3% (EGFR; inhibitor, KiNativ profiling; biochemical; 2 µM).
For `COCC(=O)N1CCc2cc(-c3csc(NC(=O)c4cc(OC)cc(OC)c4)n3)ccc21`, the inhibition was 14% (EGFR; EGF radioligand binding; 10 µM).
The inhibition of `COc1cc(OC)c(F)c(/C=C/c2cnc3ccn(S(=O)(=O)c4cn(CCF)cn4)c3n2)c1F` is reported as 0% (EGFR; 100 nM).
`CCn1cc(C(=O)O)c(=O)c2c(N)c(F)c(NC3CCCCC3)cc21` has an inhibition of 2.2% (EGFR; kinase activity; 0.1 µM, with: ATP at Km).
The inhibition of `COc1ccc(C(=O)/C=C/c2ccccc2-c2c[nH]c3ccc(C#N)cc23)c(O)c1` is reported as -1% (EGFR; enzyme activity, inhibitor; 20 µM).
For `Cc1[nH]nc2c1N=C(c1ccccc1Cl)c1cnc(N3CCOCC3)cc1N2`, the inhibition was 6% (EGFR; 10 µM, human off-target panel).
`C[C@H]1CN(C(=O)c2cn(-c3ccnc(N)n3)c3cc(C#CC4(O)CCCCC4)ccc23)CCN1` gave an inhibition of -4% (EGFR; enzyme activity, inhibitor, FRET; 1 µM).
For `NC(=O)[C@@H](O)C[C@H]1CCc2sc3ncnc(O[C@H]4CC[C@H](N5CCOCC5)CC4)c3c21`, the inhibition was 19% (EGFR; enzyme activity, inhibitor; 10 µM).
`C=CC(=O)Nc1cccc(-c2cnc3[nH]cc(C(=O)NC(C)(C)C)c3n2)c1` has an inhibition of 8% (EGFR; enzyme activity, inhibitor; 0.1 µM).
For `O=C(Nc1ccc(Oc2ncnc3[nH]cc(-c4ccccc4)c23)c(F)c1)c1c2n(n(-c3cc(F)ccc3F)c1=O)CCCC2`, the inhibition was 13% (EGFR; enzyme activity, inhibitor; 0.5 µM).
The inhibition of `Cc1cccc(O[C@H]2CCC[C@@H](C(C)CNCc3ccncc3)C2)c1` (relative stereo) is reported as 9% (EGFR; kinase activity, kinome panel screening; 1 µM).

For quick reference, copied from above:
The inhibition of `Cc1cccc(O[C@H]2CCC[C@@H](C(C)CNCc3ccncc3)C2)c1` (relative stereo) is reported as 9% (EGFR; kinase activity, kinome panel screening; 1 µM).
